Results gathered from unrelated publications.
Compare with care: the assays were run in different laboratories. ± gives the spread as reported.
B1: VEGF-D; sequence looked up; chain FAATFYDIETLKVIDEEWQRTQCSPRETCVEVASELGKSTNTFFKPPCVNVFRCGGCCNEESLICMNTSTSYISKQLFEISVPLTSVPELVPVKVANHTGCKCLPTAPRHPYSIIRR
B2: trivalent; chain KRRQTSMTDFYHSKRRLIFSGGSGGSGGSGGSGGSGGSKRRQTSMTDFYHSKRRLIFSGGSGGSGGSGGSGGSGGSKRRQTSMTDFYHSKRRLIFS
Sequence of UniProt O60656 (whole entry, looked up): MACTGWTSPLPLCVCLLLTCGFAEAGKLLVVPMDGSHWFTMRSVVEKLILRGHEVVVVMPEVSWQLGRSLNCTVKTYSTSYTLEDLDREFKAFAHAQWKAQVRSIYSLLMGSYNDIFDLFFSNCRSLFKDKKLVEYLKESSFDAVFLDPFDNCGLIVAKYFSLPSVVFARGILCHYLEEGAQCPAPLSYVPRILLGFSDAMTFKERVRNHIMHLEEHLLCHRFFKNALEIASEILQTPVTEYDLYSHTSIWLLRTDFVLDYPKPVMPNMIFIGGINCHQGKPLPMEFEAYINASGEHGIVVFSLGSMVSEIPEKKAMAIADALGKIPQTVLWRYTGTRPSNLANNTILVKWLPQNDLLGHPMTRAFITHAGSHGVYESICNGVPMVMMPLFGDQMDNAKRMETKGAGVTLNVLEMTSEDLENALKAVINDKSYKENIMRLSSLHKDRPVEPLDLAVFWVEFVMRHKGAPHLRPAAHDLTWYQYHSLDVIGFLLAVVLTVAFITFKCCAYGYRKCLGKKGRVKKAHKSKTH

`KETKPLVHPNKNRTRGPRRKLPTRV` — result for “relative polymerization rate”: 0.97 (actin, rabbit skeletal muscle; pyrene actin polymerization; peptide; concentration not given, peptide without capping protein, added: 1 µM actin, 20% pyrene; baseline: actin alone).
`NC[C@H](N)C(=O)O` gave a Km of 560 ± 70 µM (ASCT2; anion current, substrate; HEK293 transfected; pH 7.40, 0 mV).
`UGT1A9 (Homo sapiens, UniProt O60656)` has a Km of 0.19 µM (COc1ccc(-c2oc3cc(OC)ccc3c(=O)c2O)cc1; steady-state kinetics; pH 7.4, 37 °C).
For `O=C(O)Cc1cccc2c(=O)cc(-c3ccccc3)oc12`, activity read “inactive” (TBK1; phosphorylation, inhibitor; THP-1; up to 1 mM, 4 h, added: c-di-GMP).
With `Relaxin` the EC50 was 1.05 ± 0.21 nM (RXFP1 and RXFP2; agonist).
`COC(=O)C1=C(C)NC(C)=C([N+](=O)[O-])C1c1ccccc1C(F)(F)F` (racemic) gave an EC50 of 21 nM (rat L-type calcium channel; fast tail current, agonist, whole-cell patch clamp; GH3; added: 100 mM Ba2+).
Under “reduction of SMXL7-YFP level”, `CC1=C[C@H](O/C=C2/C(=O)O[C@@H]3c4ccccc4C[C@H]23)OC1=O` is recorded as 23% (SMXL7-YFP (Arabidopsis thaliana); confocal microscopy, refers to: nuclear SMXL7-YFP; Nicotiana benthamiana epidermal cells; 10 µM, 120 min, SMXL7-YFP with empty vector; baseline: mock).
For `Nc1nc(-c2ccc(OC(F)(F)F)cc2)cs1`, the inhibition was greater than 90% (MeAIB/glutamine transporter, rat; MeAIB uptake; hippocampal neurons, rat; 20 µM, added: [14C]MeAIB 23.4 µM).
The run length of `dynamin-1` is reported as 1.24 µm (dynein-1 (TMR-labelled); microtubule motility, single-molecule TIRF; pH 7.2, added: ATP 1 mM).
`Ac-DNCPFHYNP-NH2 (N-acetyl, C-amide)` gave an inhibition of 20% (mouse cathepsin G; inhibitor; peptide, wild type neutrophil lysate; 2.5 mM, 30 min preincubation, pH 8.0, 37 °C, added: N-Suc-AAPF-pNA 1 mM).
The affinity constant of `B1 (VEGF-D)` is reported as 264 ± 56.7 µg/mL (human VEGFR-3; binding, ELISA; 1000 to 31.25 µg/mL coated).
`Oc1cc(O)cc(/C=C/c2ccc(O)c(O)c2)c1` has an IC50 of 5.22 ± 2.61 µM (human HDAC class I/II; enzyme activity, inhibitor, HDAC-Glo I/II; HEK293).
`O=CN/C=C/c1cc(O)ccc1O` — result for genistein inhibition: “decreased” (native rod CNG channel; ion current, inhibitor, patch clamp; Ambystoma tigrinum, rod outer segment patch, inside-out; 100 µM, closed channels, 1 min pre-exposure, added: genistein 100 µM).
`Ac-DNCQYVYNV-NH2 (N-acetyl, C-amide)` gave an inhibition of 89% (mouse neutrophil elastase; inhibitor; peptide, wild type neutrophil lysate; 2.5 mM, 30 min preincubation, pH 8.0, 37 °C, added: MeOSuc-AAPV-pNA 1 mM).
`O=C1Nc2ccc(Cl)cc2[C@@](C#CC2CC2)(C(F)(F)F)O1` has an EC50 of 5900 ± 1300 nM (GABAA receptor α4β2γ2; current potentiation, positive allosteric modulator, whole-cell patch clamp; added: GABA EC30).
For `DPRL`, the cells bound was less than 1% (HPC4 antibody (mouse); binding, yeast display flow cytometry; peptide; concentration not given, added: 100 nM HPC4).
`Ac-DNCPYVPNA-NH2 (N-acetyl, C-amide)` — result for “cathepsin G activity”: “no effect” (mouse cathepsin G; enzyme activity; neutrophil lysate; 1.25 or 2.5 mM, pH 8.0, 37 °C).
Under “persistence of Aβ complexes”, `human clusterin` is recorded as greater than 50 h (amyloid beta 1-40 oligomers from disaggregation; 10 to 20 nM, 21 °C).
`O=S1(=O)C[C@@H](O)[C@H](O)CS1`: binding competition “inhibited” (PDIA1, ERp44 and AGR2; T47D cell extract; 100-fold excess, 2 h, added: biotinylated DDA).
For `Cc1cc(C2CCCCC2)n(O)c(=O)c1`, the maximum activation was 8.5 ± 0.5 fold (HIF ODD; luciferase reporter, activator; SH-SY5Y; 0.05 to 15 µM; baseline: background).
With `B2` the molecular weight was roughly 149 kDa (PCNA trimer, human; complex formation, gel filtration; concentration not given, pH 7.2).
The cells bound of `VDPRLI` is reported as 96.5% (HPC4 antibody (mouse); binding, yeast display flow cytometry; peptide; concentration not given, added: 100 nM HPC4).
The CFTR activity of `CC(C)(C)c1cc(C(C)(C)C)c(NC(=O)c2c[nH]c3ccccc3c2=O)cc1O` is reported as 5 ± 1.1% (CFTR R334W human; short-circuit current, potentiator; CFBE; 14.44 µM, added: forskolin 20 µM; baseline: PKA-activated wild type).
With `DPRLG` the cells bound was 94.7% (HPC4 antibody (mouse); binding, yeast display flow cytometry; peptide; concentration not given, added: 100 nM HPC4).
`O=c1c(-c2ccc(O)cc2)coc2cc(O)cc(O)c12`: “activation time constant” 20 ms (native rod CNG channel; ion current, patch clamp; Ambystoma tigrinum, rod outer segment patch, inside-out; 100 µM, 1 min, residual current after pre-exposure, closed channels, added: cGMP 2 mM).
`CS(=O)(=O)NCC1CCCN(c2ncnc3ccc(C(F)(F)F)cc23)C1` (stereo not drawn) gave an inhibition of roughly 70% (human TXNIP promoter; reporter gene, dual luciferase; INS-1 transfected; 1 µM, 24 h).
`O=c1c2nc(Br)n([C@@H]3O[C@@H]4COP(=O)(O)O[C@H]4[C@H]3O)c2nc2[nH]c(-c3ccccc3)cn12` gave an EC50 of 136 nM (cGMP antibody; non-acetylated cGMP EIA).

For quick reference, copied from above:
The affinity constant of `B1 (VEGF-D)` is reported as 264 ± 56.7 µg/mL (human VEGFR-3; binding, ELISA; 1000 to 31.25 µg/mL coated).
`Oc1cc(O)cc(/C=C/c2ccc(O)c(O)c2)c1` has an IC50 of 5.22 ± 2.61 µM (human HDAC class I/II; enzyme activity, inhibitor, HDAC-Glo I/II; HEK293).
`O=CN/C=C/c1cc(O)ccc1O` — result for genistein inhibition: “decreased” (native rod CNG channel; ion current, inhibitor, patch clamp; Ambystoma tigrinum, rod outer segment patch, inside-out; 100 µM, closed channels, 1 min pre-exposure, added: genistein 100 µM).
`Ac-DNCQYVYNV-NH2 (N-acetyl, C-amide)` gave an inhibition of 89% (mouse neutrophil elastase; inhibitor; peptide, wild type neutrophil lysate; 2.5 mM, 30 min preincubation, pH 8.0, 37 °C, added: MeOSuc-AAPV-pNA 1 mM).
